Results of several laboratories.
Parts stem from different laboratories: compare values within a part only. Changes are numbered by the printed parent chain.

Series 1
Target: Histone acetyltransferase KAT6A, winged helix 1, GST fusion (KAT6A, Homo sapiens, UniProt Q92794, residues 1-85)
Technique: protein binding microarray
Molecule type: double-stranded DNA, one strand shown
Medium: in vitro
Concentration: not given
Setting: 8-mer, flanks averaged, mean of 2 arrays, mostly near background
Relative to: not given
Reading: higher = stronger binding
Target sequence (chain): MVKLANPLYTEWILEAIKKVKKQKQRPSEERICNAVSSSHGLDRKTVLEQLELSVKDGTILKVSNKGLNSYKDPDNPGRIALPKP
Oligonucleotide	E-score
GATACCGA	0.0968
CCTCCTTA	-0.209
CCAAAAGG	-0.225
AAACGCTT	-0.119
CAAAGGTA	-0.122
GGGAGATA	-0.0136
GTGTCGTA	-0.204
CGGAGACC	0.28
ACTTCAGA	-0.12
GCAACCAA	-0.122
GAAGTCTA	-0.189
ATTCTGCG	0.145
GAAGTCAA	-0.214

Series 2
Target: CCNB1, cyclin fold, Cln2 fusion (human)
Technique: yeast growth competition, sequencing
Medium: yeast
Setting: weak parent motif
Relative to: not given
Reading: higher = stronger binding
Parent: CDKN1A docking peptide (human); SKACRRLFGPVDS
Change	normalised enrichment score
L7I	0.326
G9H	0.271
V11M	0.288
S1A	1.24
L7Y	0.378
F8G	0.28
A3N	-0.208
G9Q	0.544

Series 3
Target: TAR DNA-binding protein 43, full length, His tag (TARDBP, Homo sapiens, UniProt Q13148, residues 1-414)
Technique: RNA Bind-n-Seq
Molecule type: RNA
Medium: in vitro
Concentration: 20 nM
Setting: 6-mer, flanks averaged, single round
With: 150 mM LiCl
Relative to: input library
Reading: higher = stronger binding
Oligonucleotide	6-mer enrichment (R)
GGCAGG	1.17
ACUUGG	0.943
GACUUC	0.823
UGUUGA	1.17
UCGCCC	0.99
GUUGUC	1.05
CUUCAC	0.875
GGGGCU	1.16
GAGGAA	0.993
AUGUCA	0.899

Other studies, line by line
Molecule	target	assay	test system	conditions	how to read	endpoint	result
PhoQ, residues 284 288 289 292 302 303 ASHLAV	PhoP, residues 12 14 15 18 19 HEGLL (Escherichia coli, UniProt P23836)	Sort-seq, measured: YFP reporter	E. coli	PhoQ-PhoP variant library, with: 10 µM Mg2+	relative to: high Mg2+ state, higher = stronger signaling	fold induction	3.01

For quick reference, copied from above (series 3):
Oligonucleotide	6-mer enrichment (R)
GAGGAA	0.993
ACUUGG	0.943
UCGCCC	0.99
